Measured values gathered from unrelated publications.
Every numbered part comes from another study and shows a few of its results, in no order.

Set 1
Target: RING finger protein unkempt homolog, zinc fingers 1-6, GST-SBP tag (UNK, Homo sapiens, UniProt Q9C0B0, residues 30-357)
Method: RNA Bind-n-Seq
Molecule type: RNA
Sample: in vitro
Concentration: not given
Notes: RNA with constant flanks, human and mouse sites, ends assumed
Reference: input RNA pool
Direction: higher = stronger binding
Constant ends, left off below: GGGAGUUCUACAGUCCGACGAUC … CAACAGAGGAUUGAGCAUCA
Target sequence (chain): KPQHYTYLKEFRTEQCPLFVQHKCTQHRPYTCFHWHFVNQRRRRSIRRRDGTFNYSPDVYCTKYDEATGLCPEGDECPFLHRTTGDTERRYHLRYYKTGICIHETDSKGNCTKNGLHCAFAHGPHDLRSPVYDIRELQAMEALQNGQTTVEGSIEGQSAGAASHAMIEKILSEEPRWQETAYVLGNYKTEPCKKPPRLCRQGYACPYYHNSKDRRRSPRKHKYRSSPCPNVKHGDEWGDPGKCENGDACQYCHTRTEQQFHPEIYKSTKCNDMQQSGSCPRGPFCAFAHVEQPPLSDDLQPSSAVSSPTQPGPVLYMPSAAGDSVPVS
Strand	bound/input enrichment
ACGGUUUGCUGAGCCCGUUAGUGCGCCCGGCCGAGACACGCCGCCGCCAUGUCCCGCUACCUGCGUCCCCCCAACACGUCUCUGUUCGUCAGGAACGUGGCCGACGACACCAGGUCUGAA	0.111 ratio
AUAUAGACCUAUGAUGUACAGGUACGACAUGUAUAGGUUACCUAGAUGUUAUGAGAAAUUUUAGUUUAUUGUGAGUACUCAAGUUGCUUAGAGAGCCACCAGGGUGAUUUGCUGCUGGCU	167 ratio
AUCAUGAGAAAUGAGGUGGCUCUAACUAACUACACCUUUGAAAAUGUGAGCUUUCAUGUUCUUCAUCAGCGUUUUCCCCUCUUUACCUUUCGAGUCUUGUCAGACUGGUUUGAUAACAAG	0.139 ratio
ACUCAAAUUGAUGAUAGGAACAAAUUAACUGAACAUUUUAUCAUUACACUUCCUAUGUUACUAUCAAAGUAUUCUGCAGAUGCUGAGAAGGUAGCAAACUUGCUGCAAAUUCCACAGUAU	0.204 ratio
GGAUAAUCCAGAGAGGUUAAUCUAUCUUUAUUAUCAUAAAGCAUUGAUGGAGUAGUCACUCUGUAAUUGCCAAUACUGAAUAUGAGAAAUAUUUGGUAAAUUUUGUUUAAUUUUUUGCUA	0.133 ratio
AAUCAAAAAUUGGGGCACCCCGAAGCUCUUUCUGCUGGCACAGGCUCCCCUCAACCUCCCAGCUUCACCUAUGCCCAGCAGAGGGAGAAGCCCCGAGUGCAGGAGAAGCAGCACCCCGUG	0.11 ratio
GUGCAGGAUCCGUGCUUUGCCCAAGGAGAUGGUCUCAUUAAGGGUGAACCCUUUGUCCCUCGUGGAAAUCAUUCUUCAUGUAGUUAGACAGAUGACUGAUCCUAAUGUGGCUCUUACUUU	0.391 ratio
CGAGAUGCCCGUUCUUACAACCGGUUUCAAAUCGCCACUGUCACCGAAAAAGGUGUUGAAAUAGAGGGACCAUUGUCUACAGAGACCAACUGGGAUAUUGCCCACAUGAUCAGUGGCUUU	0.0994 ratio
GACUCUCAGUUUAACAUUAUGUCUGUUAAAACUCUGACAAGCAUUCCGAUUUUGUUAUUUAUUAGCAGUGUCAAGUCUUGUGACUAUUAAAAGAACCACUGUAAUUCAAAACAUCAGCGU	0.151 ratio
GUAAUCGACAAGAAACUUCGGAACCUGGAGAAGAAAAAGGGUAAACUUGAUGAUUACCAGGAACGAAUGAAUAAAGGGGAAAGGCUCAAUCAAGACCAGCUGGAUGCCGUAUCUAAGUAC	0.347 ratio
GCUGAAAAUAAAGUGGACAUUUUAGAAAUGCUACAGAAAGCCAAAGUAGAUUUAAAACCUCUUCUUUCUAGCCUUUCUGCAAAUAAAGAAAAACUUAAGGAGAGCUCACAUUCAGGGGUU	0.313 ratio

Set 2
Target: Histone acetyltransferase KAT6A, winged helix 1, GST fusion (KAT6A, Homo sapiens, UniProt Q92794, residues 1-85)
Method: protein binding microarray
Molecule type: double-stranded DNA, one strand shown
Sample: in vitro
Concentration: not given
Notes: 8-mer, flanks averaged, mean of 2 arrays, mostly near background
Reference: not given
Direction: higher = stronger binding
Target sequence (chain): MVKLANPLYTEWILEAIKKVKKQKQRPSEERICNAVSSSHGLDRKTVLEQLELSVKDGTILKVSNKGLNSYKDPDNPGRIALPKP
Strand	E-score
AGCAAGTC	-0.0712
GTTTACGA	-0.201
TAAGGTCA	-0.163
CTTTCATC	-0.159
CGGACAGC	0.193
AATTTGGG	-0.317
CCCAATCA	-0.17
ACTTGACA	-0.226
CGAGGTAA	0.0642
GCACGTGC	0.147
GCTATGGA	-0.0177
AATCTCTA	-0.192
AATGTCCT	-0.0764
CAAGAGAG	-0.213
ACCCCTAT	-0.0679
ATTCTGTA	-0.0694
CCGATAGG	0.114
AAGCCTCT	-0.208
CCCCCTCG	-0.0603
CGCACGAA	0.142
ACCCAGGC	-0.143
CGCCTGCC	0.214
AGCTTCTG	-0.139
CGGAGCTC	0.157
TCGGACAA	0.0673

Set 3
Target: Phosphate system positive regulatory protein PHO4, full length, GST-tagged (PHO4, Saccharomyces cerevisiae, UniProt P07270, residues 1-312)
Method: competition protein-binding microarray
Molecule type: double-stranded DNA, one strand shown
Sample: in vitro
Concentration: 2 µM
Notes: whole 60-bp probe, lowest competitor level
Added: Cbf1 competitor, 0.05 µM
Direction: higher = stronger binding
Constant ends, left off below: … GTCTTGATTCGCTTGACGCTGCTG
Residues (chain): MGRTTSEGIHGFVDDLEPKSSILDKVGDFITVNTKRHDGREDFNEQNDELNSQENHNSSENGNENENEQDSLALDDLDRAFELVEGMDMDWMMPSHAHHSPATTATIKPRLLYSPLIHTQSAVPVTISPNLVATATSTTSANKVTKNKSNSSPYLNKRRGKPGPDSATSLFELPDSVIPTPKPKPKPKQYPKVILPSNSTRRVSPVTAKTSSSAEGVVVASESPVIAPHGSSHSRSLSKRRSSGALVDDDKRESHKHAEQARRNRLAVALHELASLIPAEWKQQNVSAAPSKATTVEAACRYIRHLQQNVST
Strand	fluorescence intensity [a.u.]
ATTCAATGTCGTTATGACCTGCTCGGGATGTTCTGG	3960
CTAACGAAGGTTTTTCACGTGCGGTACAAGCCAAGT	13600
GCAGTGCATAAGAGTGACCTGCGGCCAAGAACCCTA	3040
AAGCTCGTTGGTTTGCACGTATCTTAGGCTTCACTA	5640
CGGCCGGGTGAAAAGCACGTCGTTTAGGGGGGACCC	5140
TATTCAGAAACGAGTCACGTTGTGGAAAATCTCCCT	11500
TCGTACCGAGTGATGAACGTGGTGATGAACACCTTG	10500
CTCACTCAGTACCATTACGTGTGAAAACTCCGCTGG	5560
GAGCAGTTACGCAACTCCGTGATGGCGCGCCAAGGG	3040
TGAACACCCATCCATCACGTGTAATTGGACATCCGG	16300
GGGTTAAAACTTCACCACGTTTGTAGCGGAGCAATG	11800
ACAAAAGCCTGAATTGACATGACAACGACAATAGGG	4080
TCGCGAAGGCTAAGCCATGTGCTGTTACCCCTGCTG	10500
AAACAACTTTAGTGCCGCGTGATGGCGGGGGTTGAA	7320
CGATACCGTAACCACCATGTGGGCAAGTACCGTATT	11300
TCAGAAAAGACCATTTGCGTGCTTTTACCATTATGC	6290
TATACTTTCCCTACGCACATGAAACGCATACCCCAA	7410
CGGGGTTAAGTTTGGTAGGTGGGTGGCTTGCAGCAG	4400
ACAGCCGCGGTTGGGTGCGTGGGTACGGTAATTTAA	9620
AAGTTATTGGTGTTCGTCGTGCCGATTGGAGAATTG	7330
AAATTACTAAGTTGTACGGTGGGTGACGCCGTATGA	4360
CTTCTCTTTCCCACCACCGTGGGTATCCTTTTTCTT	8630
TGTTAGTCAATTGCTCGCGTGGGACGACATTCTCTT	8850
TGTAGTGGCAGTTTGCACGGGGTTTCCTGTGCCTTA	7850
TTAATGCAAAGTGGACACGTTCAGTTACTATTTCCT	11300

Set 4
Target: RNA binding protein fox-1 homolog 2, RRM domain, GST-SBP tag (RBFOX2, Homo sapiens, UniProt O43251-10, residues 100-194)
Method: RNA Bind-n-Seq
Molecule type: RNA
Sample: in vitro
Concentration: 365 nM
Notes: natural RNA segment, single round, ends assumed
Reference: no-protein control
Direction: higher = stronger binding
Constant ends, left off below: GGGAGUUCUACAGUCCGACGAUC … UGGAAUUCUCGGGUGCCAA
Target sequence (chain): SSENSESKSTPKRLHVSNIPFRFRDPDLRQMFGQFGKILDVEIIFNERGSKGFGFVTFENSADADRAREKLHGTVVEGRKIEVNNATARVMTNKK
Strand	RBNS enrichment (R)
AAAGGCAGACCCAGGGCUCCUCUAGCCUCAUACCCGUGCCCUCACAGAGCCAUGCCCCGGCACCUCUGCCCUGUGUCUUUCAUACCUCUACAUGUCUGCUUGAGAUAUUU	3.07
CCUGGAAAGAGGCAGUCUUCUUAGCAUGGUGAGCUGAGUUCAUGGCUUUUUUUUGUAGCCAGUCCUGUCCCUGGCCAUCCAUGUGAUGGUUUUGGAUGGAGUUAAACUUG	0.511
AUGUUGCUAAUAUUAAGGCUUCAGGGCUACUUUUAUCAACAUGCCUGUCUUCAAGAUCCCAGUUUAUGUUCUGUGUCCUUCCUCAUGAUUUCCAACCUUAAUACUAUUAG	0.582
CAAGAGGAUUCUGGGCGUGGCAAGCUCUACAGGUCAAGCUGUUUCCUCUAUCCUGGUAACUCCUCACUGUACUGAUUUACUGGUGCAUGCAAUUCUGUUAAAAAAUGUAU	6.52
CAGUAGGCUCCCUGCAGUCCUUGGGAACUAUCCAAGCACGAAUCAGCAGAAGCUUGUAGGAUGAGUGUGUCGGGGCUUAAAUACUAGACAGUUCCAAUGAGAUAACACUA	0.489
AGGUGUCAGAACAGUCUCACAAUGACAUCAGUUUAGACACAUGCCAUAUACACUUGGAUCUCUGAGAGCAGAAACCCAACUCUCACUAGACAUACCUGUGAUGGAACACA	0.296
CCUGGCACAGCAGCCUUCUACUCAUCCACUGCAUGACCCGGAGGCUAGGAGAGCCUGGGCUUCCUCCUUGCGGUGGGGCCAGCCUGCAAAGGGCCACUGACCUGGCAAGC	2.72
CUAAGGUGUCUGAGAGCAGGUACAGAAUAGGAACUUCAGAGGCUUUGUUUAAACGCAAAGCUUUGUAAAAGCCACAAGGUCUGAGCUGAACCCCUCCUUUUUGAACUUAC	0.339
UGUUAAUGAUCCUGUCUUAGGGCAGAGGCCACCAGGGAGUGGGGAUCCUGAGGGAAGGGGCAGGGAUUUCUCCUUCUUCUUGGUCCUGGCUCCCAAGGGCUUCUGUCUUC	0.332
UCUGAAUCCGAGUGCUCCAGUGCAGUGUAAUGAGCUCCAACUUGGUGUGUACUGCCUGCUGGACUGAAGAGACAUGCCUGUCUUUAUGUGAGAGGCUGGCUUUUGUUUAC	0.335
GUUAGUGACAUUUUGCAAGUCUCUACAAAAGCUCUUGCCACAGAAUUCACUGCUGCCCUGACUCUUCACCAUCUUUCUUUAGCAAGGUAUUUUGAGCCAUUAAUGAUUUU	0.427
GCUUCUAAAGUGUUCAUCCUGAUCACCUGAAGGGUGUGAUUUUAGCAGAGCUGAGAGUGGCUGGUGGUGAUGUGGCCCCACCCCCUGAGGCACAGAGAAGAGGGAGACAG	0.674

Repeated from above (set 3):
Strand	fluorescence intensity [a.u.]
TTAATGCAAAGTGGACACGTTCAGTTACTATTTCCT	11300
ATTCAATGTCGTTATGACCTGCTCGGGATGTTCTGG	3960
TCAGAAAAGACCATTTGCGTGCTTTTACCATTATGC	6290
CGGCCGGGTGAAAAGCACGTCGTTTAGGGGGGACCC	5140
CGATACCGTAACCACCATGTGGGCAAGTACCGTATT	11300
GGGTTAAAACTTCACCACGTTTGTAGCGGAGCAATG	11800
ACAGCCGCGGTTGGGTGCGTGGGTACGGTAATTTAA	9620
TCGCGAAGGCTAAGCCATGTGCTGTTACCCCTGCTG	10500
AAACAACTTTAGTGCCGCGTGATGGCGGGGGTTGAA	7320
